Assay results collected from several papers.
Compare with care: the assays were run in different laboratories.

deucravacitinib
Cmax (human; oral, 20 mg, single dose): 185 ng/mL

semaglutide
participants with adverse events (item: drug interrupted; human, safety analysis set; concentration not given, 32 weeks, run-in): 4.2%

maraviroc
Cmax (human, White, CYP3A5 poor metabolizers, plasma; 300 mg twice daily): 731 ng/mL

chicoric acid
Papp apical to basolateral (IPEC-J2 monolayer; together with: vinblastine 30 µM; baseline: without inhibitor): decreased
